Experimental data of several laboratories.
Compare with care: the assays were run in different laboratories. Several values in a cell are separate wells, animals, samples, runs or records. Numbers after ± are the reported error.

With `Cc1cn(CC(=O)N(CCNC(=O)CN(CCNC(=O)CN(CCNC(=O)CN(CCNC(=O)CN(CCNC(=O)CN(CCNC(=O)CN(CCNC(=O)CN(CCN)C(=O)Cn2cnc3c(=O)[nH]c(N)nc32)C(=O)Cn2cnc3c(N)ncnc32)C(=O)Cn2cc(C)c(=O)[nH]c2=O)C(=O)Cn2cnc3c(=O)[nH]c(N)nc32)C(=O)Cn2cc(C)c(=O)[nH]c2=O)C(=O)Cn2cnc3c(=O)[nH]c(N)nc32)C(=O)Cn2cnc3c(N)ncnc32)CC(=O)NCCN(CC(=O)NCCOCCOCC(N)=O)C(=O)Cn2cnc3c(N)ncnc32)c(=O)[nH]c1=O` the Tm was 35.3 °C (UV melting; RNA duplex with T·G mismatch; pH 7.2, 1 µM each strand).
For `CC(C)C[C@H](NC(=O)CNC(=O)[C@H](CCC(N)=O)NC(=O)[C@H](CC(C)C)NC(=O)[C@H](CC(C)C)NC(=O)[C@H](CCCNC(=N)N)NC(=O)[C@H](CCC(N)=O)NC(=O)[C@H](CC(C)C)NC(=O)[C@H](CCCNC(=N)N)NC(=O)[C@H](C)NC(=O)CNC(=O)[C@H](CCC(=O)O)NC(=O)[C@H](CCCNC(=N)N)NC(=O)[C@H](CC(C)C)NC(=O)[C@H](CCCNC(=N)N)NC(=O)[C@H](CO)NC(=O)[C@H](CC(C)C)NC(=O)[C@H](CCC(=O)O)NC(=O)[C@H](CO)NC(=O)[C@@H](NC(=O)[C@H](Cc1ccccc1)NC(=O)[C@@H](NC(=O)CNC(=O)[C@H](CC(=O)O)NC(=O)C(C)(C)NC(=O)[C@@H](N)Cc1c[nH]cn1)[C@@H](C)O)[C@@H](C)O)C(=O)N[C@@H](CC(C)C)C(=O)N[C@@H](CCC(N)=O)C(=O)NCC(=O)N[C@@H](CC(C)C)C(=O)N[C@H](C(=O)NCC(=O)N[C@@H](CCCCNC(=O)COCCOCCNC(=O)COCCOCCNC(=O)CC[C@H](NC(=O)CCCCCCCCCCCCCCCCC(=O)O)C(=O)O)C(N)=O)C(C)C`, “fasting blood glucose” read “increased” (DIO C57BL/6J mice; dose not given, day 28, 2 h fasted, with: GLP-1R agonist co-treatment).
The larval motion of `Cc1cc(OCCOCCn2ccnc2)cc(C(C)C)c1` is reported as 1.3 ± 0.6 pixels/frame (locomotor activity in dark; zebrafish larvae, 7 dpf; 10 µM, minute 5, dark phase).
With `COc1cc(O)ccc1CCC(c1ccc(O)cc1)c1cc2c(c(C)c1O)OC(c1ccc(O)cc1)CC2` (mixture of isomers) the amount was 127 ± 44 pg/mL blood (refers to: LTB4 isomers; human whole blood; 30 µM, with: Escherichia coli).
`CC(=O)[O-].O.O.O.O.[Ni+2].[O-]c1ccc(Br)cc1C=NCCN1CCOCC1` gave an inhibition of 42.9% (nitric oxide scavenging; 200 µM).
`N[C@@H](CNC(=O)N[C@@H](CS)C(=O)NCC(=O)O)C(=O)O` gave a TNF-α level of 22.1 ± 1.2 pg/mg protein (ELISA; mouse C57BL/6, Aβ i.c.v. model, brain lysate; intranasal, dose not given).
`S=C(S)OC1CC2CC1C1CCCC21` (stereo not shown): “extracellular enkephalin concentration” 115 pM and 645 pM and 309 pM and 97.3 pM and 404 pM and 388 pM and 471 pM and 737 pM (inhibitor, LC-MS/MS, refers to: Met- or Leu-enkephalin; mouse striatal brain slices; 500 µM, 20 min, with: 50 mM KCl).
The larval motion of `CCc1cc(OCCOCCN(C)C)ccc1Cl` is reported as 1.7 ± 1.2 pixels/frame (locomotor activity in dark; zebrafish larvae, 7 dpf; 10 µM, minute 5, dark phase).
The 14-HDHA level of `COc1ccc(C(=O)CCc2cc(C(CCc3ccc(O)cc3OC)c3ccc(O)cc3)c(O)cc2OC)cc1` (racemic) is reported as 722 ± 188 pg/mL (human blood; 10 µM, with: A23187).
`COc1ccccc1-c1ccncc1C(=O)Nc1nnc(OCc2ccc(Cl)cc2)s1` has a colony survival of 19.4% (Brca1 Δ11/Δ11 MEF sgGFP, Mus musculus; 20 µM, mean of all runs; relative to: 0 µM).
The larval motion of `O=C(CCN1CCN(C/C=C/c2ccccc2)CC1)Nc1ccc2c(c1)CCC2` is reported as 5.8 ± 1 pixels/frame (locomotor activity in dark; zebrafish larvae, 7 dpf; 10 µM, minute 5, dark phase).
`Cc1cn(CC(=O)N(CC(=O)N[C@H]2COC[C@@H]2N(CC(=O)NCCOCCOCC(N)=O)C(=O)Cn2cnc3c(N)ncnc32)[C@H]2COC[C@@H]2NC(=O)CN(C(=O)Cn2cnc3c(N)ncnc32)[C@H]2COC[C@@H]2NC(=O)CN(C(=O)Cn2cnc3c(=O)[nH]c(N)nc32)[C@H]2COC[C@@H]2NC(=O)CN(C(=O)Cn2cc(C)c(=O)[nH]c2=O)[C@H]2COC[C@@H]2NC(=O)CN(C(=O)Cn2cnc3c(=O)[nH]c(N)nc32)[C@H]2COC[C@@H]2NC(=O)CN(C(=O)Cn2cc(C)c(=O)[nH]c2=O)[C@H]2COC[C@@H]2NC(=O)CN(C(=O)Cn2cnc3c(N)ncnc32)[C@H]2COC[C@@H]2NC(=O)CN(C(=O)Cn2cnc3c(=O)[nH]c(N)nc32)[C@H]2COC[C@@H]2N)c(=O)[nH]c1=O` has a Tm of 50.7 °C (UV melting; DNA duplex with T·C mismatch; pH 7.2, 1 µM each strand).
`CN(Cc1ccc(/C=C/C(=O)NO)cc1)CC12CC3CC(CC(C3)C1)C2` gave an EC50 of 100 nM (refers to: H4K12ac; mouse; 24 h, cell-based).
For `C[C@@H]1CN(c2ccnc(C(=O)N[C@H]3C[C@@H]3c3ccccc3)c2)CC[C@@H]1O`, the creatine concentration was 1140 µg/mL and 764 µg/mL and 802 µg/mL (female heterozygous SLC6A8 P549L mice, right hippocampus; oral, 30 mg/kg twice daily, 8 h).
`OC(COCC1COc2ccccc2O1)CN1CCN(c2ccccc2)CC1` (stereo not shown) gave a larval motion of 4.2 ± 1.5 pixels/frame (zebrafish larvae, 7 dpf; 10 µM, minute 2).
Under “DPPH radical scavenging”, `COc1ccc2c(c1)c(CC(=O)[O-])c(C)n2C(=O)c1ccc(Cl)cc1.COc1ccc2c(c1)c(CC(=O)[O-])c(C)n2C(=O)c1ccc(Cl)cc1.[Co+2].c1c[nH]cn1.c1c[nH]cn1` is recorded as 15 ± 0.76% (DPPH; methanol; concentration not given, 30 min).
With `COCCNCCOc1cc(C)cc(C(C)C)c1` the larval motion was 15.2 ± 1.5 pixels/frame (zebrafish larvae, 7 dpf; 10 µM, minute 6).
For `O=S(=O)(N[C@H]1CCO[C@@H](C2c3ccc(F)cc3CCc3cc(F)ccc32)C1)c1ccc(OC(F)(F)F)cc1`, “leptomeningeal metastasis bioluminescence” read “decreased” (D341-Luc, athymic nude mouse; oral gavage, 75 mg/kg twice daily; relative to: vehicle).
`O=C(CCN1CCN(C/C=C/c2ccccc2)CC1)Nc1ccccc1` gave a larval motion of 11.2 ± 1.6 pixels/frame (zebrafish larvae, 7 dpf; 10 µM, minute 6).
`COC1CN([C@H]2CC[C@H]([C@@]3(C)Oc4c(Cl)cc(C(=O)NCc5c(SC)cc(C)[nH]c5=O)c(C)c4O3)CC2)C1` — result for “log2 fold change”: 3.49 (RNA-seq, refers to: PDE2A; human, whole blood; dose not given, 24 h; relative to: pretreatment baseline).
With `CCOC(=O)C1CCN(CCC(=O)Nc2ccccc2F)CC1` the larval motion was 0.7 ± 0.5 pixels/frame (zebrafish larvae, 7 dpf; 10 µM, minute 2).
With `CN(C)C(=O)c1ccnc(N2Cc3cn(Cc4ccc(F)cc4F)nc3C2)n1` the paired-pulse ratio was 1.79 and 1.5 and 1.52 and 2.36 and 1.68 and 2.56 and 1.63 and 1.48 (mouse, hippocampal slice, Schaffer collaterals; dose not given, interstimulus interval 50; relative to: second over first response).

Some of these lines once more:
`CN(Cc1ccc(/C=C/C(=O)NO)cc1)CC12CC3CC(CC(C3)C1)C2` gave an EC50 of 100 nM (refers to: H4K12ac; mouse; 24 h, cell-based).
`N[C@@H](CNC(=O)N[C@@H](CS)C(=O)NCC(=O)O)C(=O)O` gave a TNF-α level of 22.1 ± 1.2 pg/mg protein (ELISA; mouse C57BL/6, Aβ i.c.v. model, brain lysate; intranasal, dose not given).
